Experimental data collected from several papers.
± marks the error that the study gave.
FGFR1: Fibroblast growth factor receptor 1 (FGFR1, Homo sapiens, UniProt P11362)
Chain of UniProt P11362 (whole entry, looked up): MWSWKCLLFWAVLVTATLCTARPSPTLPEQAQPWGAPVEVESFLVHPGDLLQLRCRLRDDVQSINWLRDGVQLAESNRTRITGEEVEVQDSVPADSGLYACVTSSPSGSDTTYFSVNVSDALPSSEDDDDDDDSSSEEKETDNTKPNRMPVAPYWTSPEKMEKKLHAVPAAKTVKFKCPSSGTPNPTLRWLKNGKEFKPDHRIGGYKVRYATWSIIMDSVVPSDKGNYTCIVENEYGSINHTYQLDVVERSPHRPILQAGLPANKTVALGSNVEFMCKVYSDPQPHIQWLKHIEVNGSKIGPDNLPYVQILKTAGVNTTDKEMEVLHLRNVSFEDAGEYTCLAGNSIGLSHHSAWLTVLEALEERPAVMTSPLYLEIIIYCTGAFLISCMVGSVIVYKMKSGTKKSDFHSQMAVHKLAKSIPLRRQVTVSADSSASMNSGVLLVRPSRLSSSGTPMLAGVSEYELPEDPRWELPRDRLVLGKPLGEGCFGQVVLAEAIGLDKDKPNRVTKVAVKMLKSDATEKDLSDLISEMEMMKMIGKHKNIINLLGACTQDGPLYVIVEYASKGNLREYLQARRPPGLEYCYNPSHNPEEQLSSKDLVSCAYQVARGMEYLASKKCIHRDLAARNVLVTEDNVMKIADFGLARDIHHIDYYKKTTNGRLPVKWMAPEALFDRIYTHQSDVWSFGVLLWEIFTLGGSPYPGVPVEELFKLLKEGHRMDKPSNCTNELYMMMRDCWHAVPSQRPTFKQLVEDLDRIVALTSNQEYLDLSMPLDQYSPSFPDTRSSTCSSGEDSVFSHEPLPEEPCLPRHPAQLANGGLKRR
lecB: Fucose-binding lectin PA-IIL (lecB, Pseudomonas aeruginosa, UniProt Q9HYN5)
Chain of UniProt P25440 (whole entry, looked up): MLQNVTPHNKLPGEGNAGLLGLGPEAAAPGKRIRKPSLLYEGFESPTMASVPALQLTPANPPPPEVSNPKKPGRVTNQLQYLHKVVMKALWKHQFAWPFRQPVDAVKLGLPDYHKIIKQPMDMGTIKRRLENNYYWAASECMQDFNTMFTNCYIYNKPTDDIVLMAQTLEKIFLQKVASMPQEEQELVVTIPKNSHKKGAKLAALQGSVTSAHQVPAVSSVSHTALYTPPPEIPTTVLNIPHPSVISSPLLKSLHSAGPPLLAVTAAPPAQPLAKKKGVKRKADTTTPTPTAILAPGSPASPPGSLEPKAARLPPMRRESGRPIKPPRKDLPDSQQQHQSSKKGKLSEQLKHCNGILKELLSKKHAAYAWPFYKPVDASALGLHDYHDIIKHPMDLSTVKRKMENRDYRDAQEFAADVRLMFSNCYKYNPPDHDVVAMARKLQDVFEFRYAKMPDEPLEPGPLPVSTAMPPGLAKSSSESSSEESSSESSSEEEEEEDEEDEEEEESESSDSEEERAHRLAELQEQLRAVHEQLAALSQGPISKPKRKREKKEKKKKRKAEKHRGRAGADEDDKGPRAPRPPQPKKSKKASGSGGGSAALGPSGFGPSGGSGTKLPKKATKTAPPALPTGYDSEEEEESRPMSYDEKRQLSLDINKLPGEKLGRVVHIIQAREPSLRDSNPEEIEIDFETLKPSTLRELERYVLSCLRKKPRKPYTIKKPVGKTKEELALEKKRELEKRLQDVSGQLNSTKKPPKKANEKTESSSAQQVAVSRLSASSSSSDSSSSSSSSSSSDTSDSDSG
Chain of UniProt Q06911 (whole entry, looked up): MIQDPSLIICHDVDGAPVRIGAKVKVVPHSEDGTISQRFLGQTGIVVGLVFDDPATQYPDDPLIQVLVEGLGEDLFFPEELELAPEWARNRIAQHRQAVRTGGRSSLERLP
Chain of UniProt P08238 (whole entry, looked up): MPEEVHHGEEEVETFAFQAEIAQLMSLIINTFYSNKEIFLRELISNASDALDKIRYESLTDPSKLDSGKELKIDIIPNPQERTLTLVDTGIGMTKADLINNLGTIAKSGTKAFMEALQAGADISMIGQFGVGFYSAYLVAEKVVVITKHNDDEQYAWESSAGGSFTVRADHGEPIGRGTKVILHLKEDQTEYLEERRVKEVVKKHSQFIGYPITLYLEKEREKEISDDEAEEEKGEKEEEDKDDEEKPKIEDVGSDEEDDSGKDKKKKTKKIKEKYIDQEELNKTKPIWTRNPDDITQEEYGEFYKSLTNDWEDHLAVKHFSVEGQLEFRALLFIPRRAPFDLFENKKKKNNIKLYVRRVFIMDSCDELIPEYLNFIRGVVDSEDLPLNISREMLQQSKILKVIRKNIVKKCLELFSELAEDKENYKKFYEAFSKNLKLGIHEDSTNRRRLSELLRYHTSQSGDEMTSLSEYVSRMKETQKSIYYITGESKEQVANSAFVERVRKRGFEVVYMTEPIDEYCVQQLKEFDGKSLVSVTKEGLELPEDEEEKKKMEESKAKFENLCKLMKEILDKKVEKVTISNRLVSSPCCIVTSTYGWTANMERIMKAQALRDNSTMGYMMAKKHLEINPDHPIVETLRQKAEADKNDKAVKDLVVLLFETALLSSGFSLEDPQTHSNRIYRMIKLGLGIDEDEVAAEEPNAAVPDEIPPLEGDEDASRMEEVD
Chain of UniProt Q9Y566 (whole entry, looked up): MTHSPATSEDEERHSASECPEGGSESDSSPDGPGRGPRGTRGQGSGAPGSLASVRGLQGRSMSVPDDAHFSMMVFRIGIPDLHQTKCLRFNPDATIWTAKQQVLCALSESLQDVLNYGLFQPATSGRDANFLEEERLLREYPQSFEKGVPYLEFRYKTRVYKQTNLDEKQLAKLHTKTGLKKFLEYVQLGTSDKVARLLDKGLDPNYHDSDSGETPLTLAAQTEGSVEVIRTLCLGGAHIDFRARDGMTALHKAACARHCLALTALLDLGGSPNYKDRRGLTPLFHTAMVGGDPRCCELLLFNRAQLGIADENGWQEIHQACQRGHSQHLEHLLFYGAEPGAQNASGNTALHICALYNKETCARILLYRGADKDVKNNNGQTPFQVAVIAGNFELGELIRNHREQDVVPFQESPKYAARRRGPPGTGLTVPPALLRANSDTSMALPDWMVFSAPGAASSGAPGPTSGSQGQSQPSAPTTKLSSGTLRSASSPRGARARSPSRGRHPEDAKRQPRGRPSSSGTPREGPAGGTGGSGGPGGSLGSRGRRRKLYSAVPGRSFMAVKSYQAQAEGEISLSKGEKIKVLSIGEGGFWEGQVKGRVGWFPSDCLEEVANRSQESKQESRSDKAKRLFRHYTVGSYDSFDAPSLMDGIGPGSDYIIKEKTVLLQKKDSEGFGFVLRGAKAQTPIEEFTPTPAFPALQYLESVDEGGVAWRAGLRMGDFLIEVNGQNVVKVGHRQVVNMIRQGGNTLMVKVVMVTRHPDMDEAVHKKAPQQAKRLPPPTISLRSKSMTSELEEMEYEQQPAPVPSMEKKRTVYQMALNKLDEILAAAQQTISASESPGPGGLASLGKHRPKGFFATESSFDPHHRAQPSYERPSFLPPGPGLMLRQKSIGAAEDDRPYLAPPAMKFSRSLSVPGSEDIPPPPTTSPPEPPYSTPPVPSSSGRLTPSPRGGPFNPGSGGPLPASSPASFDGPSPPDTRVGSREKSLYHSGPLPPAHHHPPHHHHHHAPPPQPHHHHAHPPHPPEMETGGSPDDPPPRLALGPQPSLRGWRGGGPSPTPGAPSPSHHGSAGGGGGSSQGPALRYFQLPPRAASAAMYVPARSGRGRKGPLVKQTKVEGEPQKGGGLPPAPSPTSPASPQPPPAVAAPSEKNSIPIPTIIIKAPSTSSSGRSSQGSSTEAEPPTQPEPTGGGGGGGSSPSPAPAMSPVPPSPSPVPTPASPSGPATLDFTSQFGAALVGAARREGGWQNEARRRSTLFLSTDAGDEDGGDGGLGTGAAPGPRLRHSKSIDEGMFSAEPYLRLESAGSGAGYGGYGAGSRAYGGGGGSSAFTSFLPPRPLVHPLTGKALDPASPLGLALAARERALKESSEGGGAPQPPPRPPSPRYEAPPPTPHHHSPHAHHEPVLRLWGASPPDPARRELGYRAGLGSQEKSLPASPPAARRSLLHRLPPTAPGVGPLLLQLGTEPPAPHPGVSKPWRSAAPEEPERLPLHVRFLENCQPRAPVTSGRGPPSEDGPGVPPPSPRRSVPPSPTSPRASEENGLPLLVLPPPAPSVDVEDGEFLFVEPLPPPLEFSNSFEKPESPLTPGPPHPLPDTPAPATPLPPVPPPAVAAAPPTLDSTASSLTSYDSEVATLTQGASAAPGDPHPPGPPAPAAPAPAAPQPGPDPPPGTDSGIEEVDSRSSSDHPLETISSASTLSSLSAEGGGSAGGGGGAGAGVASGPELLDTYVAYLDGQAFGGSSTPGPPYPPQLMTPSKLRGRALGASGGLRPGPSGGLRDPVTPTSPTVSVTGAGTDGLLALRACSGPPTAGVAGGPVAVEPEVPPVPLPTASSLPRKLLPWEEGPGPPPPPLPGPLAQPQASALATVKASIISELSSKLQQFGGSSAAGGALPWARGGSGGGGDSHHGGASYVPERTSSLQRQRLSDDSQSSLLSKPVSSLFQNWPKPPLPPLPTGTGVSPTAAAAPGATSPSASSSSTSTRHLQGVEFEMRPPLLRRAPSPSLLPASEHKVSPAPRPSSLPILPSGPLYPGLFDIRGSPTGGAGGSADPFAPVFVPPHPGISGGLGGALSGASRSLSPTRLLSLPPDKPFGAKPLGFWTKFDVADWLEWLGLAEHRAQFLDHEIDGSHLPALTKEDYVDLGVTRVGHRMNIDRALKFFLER
Chain of UniProt Q9UER7 (55-144, looked up): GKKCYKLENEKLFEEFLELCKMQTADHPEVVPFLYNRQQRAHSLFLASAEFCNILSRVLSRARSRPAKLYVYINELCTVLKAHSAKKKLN
Chain of UniProt P07492 (whole entry, looked up): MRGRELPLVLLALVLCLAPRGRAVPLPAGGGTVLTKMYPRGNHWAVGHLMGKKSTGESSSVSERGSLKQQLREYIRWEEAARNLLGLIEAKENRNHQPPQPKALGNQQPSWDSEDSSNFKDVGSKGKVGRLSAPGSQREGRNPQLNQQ

Structure (SMILES)	target	assay	setting	Kd
COC(=O)C(C)C1N=C(c2ccc(Cl)cc2)c2cc(OC)ccc2-n2c(C)nnc21 (stereo not drawn)	Bromodomain-containing protein 2, BD1 (BRD2, Homo sapiens, UniProt P25440)	binding, ITC		1.5 µM
CC[C@H](C)[C@H](NC(=O)[C@H](CCC(=O)O)NC(=O)[C@H](CS)NC(=O)[C@@H](NC(=O)CNC(=O)[C@H](CO)NC(=O)[C@H](CC(C)C)NC(=O)[C@H](CO)NC(=O)[C@H](CCC(=O)O)NC(=O)[C@H](CCCNC(=N)N)NC(=O)[C@@H](NC(=O)[C@H](C)NC(=O)[C@H](CS)NC(=O)[C@H](CCCNC(=N)N)NC(=O)CNC(=O)[C@@H](NC(=O)[C@H](CCCNC(=N)N)NC(=O)[C@H](CS)NC(=O)[C@H](Cc1ccc(O)cc1)NC(=O)[C@H](CS)NC(=O)[C@@H](NC(=O)[C@H](C)N)[C@@H](C)O)[C@@H](C)O)[C@@H](C)O)C(C)C)C(=O)N[C@@H](CO)C(=O)NCC(=O)N[C@@H](CCCNC(=N)N)C(=O)N[C@@H](CC(C)C)C(=O)N[C@@H](Cc1ccc(O)cc1)C(=O)N[C@@H](CCCNC(=N)N)C(=O)N[C@@H](CC(C)C)C(=O)N[C@@H](CS)C(=O)N[C@@H](CS)C(=O)N[C@@H](CCCNC(=N)N)C(=O)O	Zn(II)	metal binding, Zinpyr-4 competition titration	pH 7.4, 2:1 binding model, anaerobic	0.000247 ± 2.3e-05 µM
CC[C@@H]1[C@@H](C)O[C@@](O)([C@@H](C)[C@H](O)[C@H](C)[C@H]2OC(=O)/C=C/C=C/[C@H](C)[C@@H]([C@@H](C)[C@@H](O)[C@H](C)[C@@]3(O)C[C@@H](O[C@H]4C[C@H](O)[C@H](O)[C@H](C)O4)[C@H](CC)[C@@H](C)O3)OC(=O)/C=C/C=C/[C@@H]2C)C[C@H]1O[C@H]1C[C@H](O)[C@H](O)[C@H](C)O1	Nuclear receptor ROR-gamma (RORC, Homo sapiens, UniProt P51449)	binding, SPR		5.05 µM
CC[C@H](C)[C@H](NC(=O)[C@@H](N)CCCCN)C(=O)N[C@@H](Cc1c[nH]c2ccccc12)C(=O)N[C@@H](CC(C)C)C(=O)N[C@H](C(=O)N1CCC[C@H]1C(=O)NCC(=O)NCC(=O)N[C@@H](CC(=O)O)C(=O)N[C@H](C(=O)N[C@@H](CC(C)C)C(=O)N[C@@H](C)C(=O)O)C(C)C)[C@@H](C)CC	Gastrin-releasing peptide (Homo sapiens, UniProt P07492)	biolayer interferometry		0.095 µM
CSCC[C@H](NC(C)=O)C(=O)N[C@@H](Cc1ccccc1)C(=O)N[C@@H](CC(N)=O)C(=O)N[C@H]1CSCc2cc3cc(c2)CSC[C@H](NC(=O)[C@H]([C@@H](C)O)NC(=O)[C@H](Cc2c[nH]cn2)NC(=O)[C@H](CO)NC(=O)[C@H](Cc2ccc(O)cc2)NC(=O)[C@H](Cc2ccccc2)NC(=O)[C@@H]2CCCN2C(=O)[C@H](CC(C)C)NC(=O)[C@H](CC(C)C)NC1=O)C(=O)N[C@@H](CO)C(=O)N[C@H](C(=O)NCC(=O)N[C@@H](CO)C(=O)NCC(=O)N[C@@H](CO)C(=O)NCC(=O)N[C@@H](CO)C(=O)N[C@@H](CC(=O)O)C(=O)N[C@@H](Cc1ccc(O)cc1)C(=O)N[C@@H](CCCCN)C(=O)N[C@@H](CC(=O)O)C(=O)N[C@@H](CC(=O)O)C(=O)N[C@@H](CC(=O)O)C(=O)N[C@@H](CC(=O)O)C(=O)N[C@@H](CCCCN)C(N)=O)CSC3	FGFR1	binding, BLI		> 10 µM
CC[C@H](C)[C@H](NC(=O)CNC(C)=O)C(=O)N[C@@H](CCCNC(=N)N)C(=O)N[C@@H](CCC(=O)O)C(=O)N[C@@H](C)C(=O)N[C@H](C(=O)N[C@@H](CC(C)C)C(=O)N[C@@H](CCCNC(=N)N)C(=O)N[C@@H](C)C(=O)N[C@@H](Cc1c[nH]c2ccccc12)C(=O)N[C@@H](CCC(=O)O)C(=O)N[C@@H](CCCNC(=N)N)C(=O)N[C@@H](CCCNC(=N)N)C(=O)N[C@@H](Cc1ccc(O)cc1)C(=O)NCC(=O)N[C@@H](Cc1ccccc1)C(=O)N1CCC[C@H]1C(=O)N[C@@H](CCCNC(=N)N)C(=O)N1CCC[C@H]1C(=O)N[C@@H](CC(C)C)C(=O)N[C@@H](CCCNC(=N)N)C(=O)N[C@@H](CO)C(=O)N[C@@H](CCC(=O)O)C(N)=O)[C@@H](C)O	Antirepressor protein CarS (carS, Myxococcus xanthus, UniProt Q06911)	isothermal titration calorimetry	pH 7.5, 35 °C	0.27 ± 0.022 µM
CSCC[C@H](NC(C)=O)C(=O)N[C@H](C(=O)N[C@@H](Cc1ccccc1)C(=O)N[C@@H](CC(C)C)C(=O)N[C@@H](CC(=O)O)C(=O)N[C@H](C(=O)N[C@H]1CSCc2cccc(c2)CSC[C@@H](C(=O)N[C@@H](Cc2ccc(O)cc2)C(=O)N[C@H](C(=O)N[C@@H](CO)C(=O)N[C@@H](Cc2ccccc2)C(=O)N[C@@H](CCSC)C(=O)NCC(=O)N[C@@H](CO)C(=O)NCC(=O)N[C@@H](CO)C(=O)NCC(=O)N[C@@H](CO)C(=O)N[C@@H](CC(=O)O)C(=O)N[C@@H](Cc2ccc(O)cc2)C(=O)N[C@@H](CCCCN)C(=O)N[C@@H](CC(=O)O)C(=O)N[C@@H](CC(=O)O)C(=O)N[C@@H](CC(=O)O)C(=O)N[C@@H](CC(=O)O)C(=O)N[C@@H](CCCCN)C(N)=O)C(C)C)NC(=O)[C@H](CCCNC(=N)N)NC(=O)[C@H]([C@@H](C)O)NC1=O)[C@@H](C)O)[C@@H](C)O	FGFR1	binding, BLI		> 10 µM
C[C@@H](O)[C@@H]1NC(=O)[C@H](CCCCN)NC(=O)CCC(=O)NCCCC[C@@H](C(=O)NCC(=O)NCC(=O)N[C@@H](Cc2ccc(O)cc2)C(=O)NCC(=O)N[C@@H](CCCNC(=N)N)C(=O)N[C@@H](CCCCN)C(=O)N[C@@H](CCCCN)C(=O)N[C@@H](CCCNC(=N)N)C(=O)N[C@@H](CCCNC(=N)N)C(=O)N[C@@H](CCC(N)=O)C(=O)N[C@@H](CCCNC(=N)N)C(=O)N[C@@H](CCCNC(=N)N)C(=O)N[C@@H](CCCNC(=N)N)C(N)=O)NC(=O)[C@H](CCCCN)NC(=O)[C@H](CCC(=O)O)NC(=O)[C@H](CC(=O)O)NC(=O)CNC1=O	Heat shock protein HSP 90-alpha (HSP90AA1, Homo sapiens, UniProt P07900)	binding, field-effect biosensor	pH 7.4	137 ± 24.3 µM
CC[C@H](C)[C@H](NC(=O)[C@H](CC(C)C)NC(=O)[C@H](CCC(=O)O)NC(=O)[C@@H]1CCCN1C(=O)[C@@H](N)Cc1ccccc1)C(=O)N[C@@H](CCC(N)=O)C(=O)N[C@@H](CC(=O)O)C(=O)N[C@H](C(=O)N[C@@H](CO)C(=O)N[C@H](C(=O)N[C@@H](CO)C(=O)N[C@@H](Cc1ccccc1)C(=O)N[C@@H](CO)C(=O)N[C@H](C(=O)N[C@H](C(=O)N[C@@H](CCCNC(=N)N)C(=O)O)[C@@H](C)O)[C@@H](C)O)[C@@H](C)O)[C@@H](C)O	SH3 and multiple ankyrin repeat domains protein 1, PDZ domain (SHANK1, Homo sapiens, UniProt Q9Y566)	binding, fluorescence polarization	added: FITC-labelled peptide	4.3 ± 0.2 µM
N=C(N)NCCC[C@H](NC(=O)[C@H](Cc1ccccc1)NC(=O)[C@@H]1CCCN1C(=O)[C@H](CO)NC(=O)[C@H](Cc1ccccc1)NC(=O)CNC(=O)[C@@H]1CCCN1C(=O)[C@@H]1CCCN1C(=O)[C@@H](N)CCCNC(=N)N)C(=O)N[C@@H](CCCCNS(=O)(=O)c1ccc(C2=c3cc4c5c(c3Oc3c2cc2c6c3CCCN6CCC2)CCC[N+]=5CCC4)c(S(=O)(=O)[O-])c1)C(=O)O	Oligopeptide-binding protein OppA (oppA, Lactococcus lactis subsp. lactis, UniProt Q07741)	binding, fluorescence anisotropy	pH 5, 24 °C, added: dye-labelled peptide	12.3 ± 0.5 µM
CC[C@H](C)[C@H]1C(=O)O[C@H](C(C)C)C(=O)N(C)[C@@H]([C@@H](C)CC)C(=O)O[C@H](C(C)C)C(=O)N(C)[C@@H]([C@@H](C)CC)C(=O)O[C@H](C(C)C)C(=O)N1C	Heat shock protein HSP 90-beta (HSP90AB1, Homo sapiens, UniProt P08238)	binding, SPR	pH 7.4	14.5 µM
CC(C)C[C@H](NC(=O)[C@@H]1CCCN1C(=O)[C@H](CCCCN)NC(=O)C[C@@H]1O[C@@H](C)[C@@H](O)[C@@H](O)[C@@H]1O)C(=O)N[C@@H](CCCCNC(=O)[C@H](CC(C)C)NC(=O)[C@@H]1CCCN1C(=O)[C@H](CCCCN)NC(=O)c1ccc(O[C@@H]2O[C@H](CO)[C@H](O)[C@H](O)[C@H]2O)cc1)C(=O)N[C@@H](Cc1ccccc1)C(=O)N[C@@H](CS)C(N)=O	lecB	binding, ITC	pH 7.5	2.63 µM
CC[C@H](C)[C@H](NC(=O)[C@H](CCCNC(=N)N)NC(=O)[C@H](CC(N)=O)NC(=O)[C@H](CCC(=O)O)NC(=O)[C@@H]1CCCN1C(=O)[C@H](CC(=O)O)NC(=O)[C@H](CC(N)=O)NC(=O)[C@H](CC(=O)O)NC(=O)[C@H](CC(=O)O)NC(=O)[C@@H](N)CO)C(=O)N[C@@H](C)C(=O)N[C@@H](CCCCN)C(=O)N[C@@H](CCCCN)C(=O)N[C@@H](CCSC)C(=O)N[C@@H](CC(C)C)C(=O)N[C@@H](CC(C)C)C(=O)N[C@@]1(C)CCCC=CCCC[C@@](C)(C(=O)N[C@@H](CC(N)=O)C(=O)N[C@@H](CC(C)C)C(=O)N[C@@H](CO)C(=O)O)NC(=O)[C@H](CCCCN)NC(=O)[C@H]([C@@H](C)CC)NC(=O)[C@H](CCC(=O)O)NC1=O	Death domain-associated protein 6, residues 55-144 (Homo sapiens, UniProt Q9UER7)	isothermal titration calorimetry	pH 7.5, 25 °C	0.34 µM
CC(C)C[C@H](NC(=O)[C@@H]1CCCN1C(=O)[C@H](CCCCN)NC(=O)C[C@@H]1O[C@@H](C)[C@@H](O)[C@@H](O)[C@@H]1O)C(=O)NCCCC[C@H](NC(=O)[C@H](CC(C)C)NC(=O)[C@@H]1CCCN1C(=O)[C@H](CCCCN)NC(=O)c1ccc(O[C@@H]2O[C@H](CO)[C@H](O)[C@H](O)[C@H]2O)cc1)C(=O)N[C@@H](Cc1ccccc1)C(=O)N[C@@H](CS)C(N)=O	lecB	binding, ITC	pH 7.5	2.57 µM
C[C@H](N)C(=O)N[C@@H](CCCNC(=N)N)C(=O)N[C@H](C(=O)N[C@@H](CCCCN)C(=O)N[C@@H](CCC(N)=O)C(=O)N[C@H](C(=O)N[C@@H](C)C(=O)N[C@@H](CCCNC(=N)N)C(=O)N[C@@H](CCCCN)C(=O)N[C@@H](CO)C(=O)N[C@H](C(=O)NCC(=O)O)[C@@H](C)O)[C@@H](C)O)[C@@H](C)O	MORC family CW-type zinc finger protein 3, CW domain (MORC3, Homo sapiens, UniProt Q14149)	binding		6.8 µM

For quick reference, copied from above:
Structure (SMILES)	target	assay	setting	Kd
C[C@@H](O)[C@@H]1NC(=O)[C@H](CCCCN)NC(=O)CCC(=O)NCCCC[C@@H](C(=O)NCC(=O)NCC(=O)N[C@@H](Cc2ccc(O)cc2)C(=O)NCC(=O)N[C@@H](CCCNC(=N)N)C(=O)N[C@@H](CCCCN)C(=O)N[C@@H](CCCCN)C(=O)N[C@@H](CCCNC(=N)N)C(=O)N[C@@H](CCCNC(=N)N)C(=O)N[C@@H](CCC(N)=O)C(=O)N[C@@H](CCCNC(=N)N)C(=O)N[C@@H](CCCNC(=N)N)C(=O)N[C@@H](CCCNC(=N)N)C(N)=O)NC(=O)[C@H](CCCCN)NC(=O)[C@H](CCC(=O)O)NC(=O)[C@H](CC(=O)O)NC(=O)CNC1=O	Heat shock protein HSP 90-alpha (HSP90AA1, Homo sapiens, UniProt P07900)	binding, field-effect biosensor	pH 7.4	137 ± 24.3 µM
CC[C@H](C)[C@H](NC(=O)[C@H](CC(C)C)NC(=O)[C@H](CCC(=O)O)NC(=O)[C@@H]1CCCN1C(=O)[C@@H](N)Cc1ccccc1)C(=O)N[C@@H](CCC(N)=O)C(=O)N[C@@H](CC(=O)O)C(=O)N[C@H](C(=O)N[C@@H](CO)C(=O)N[C@H](C(=O)N[C@@H](CO)C(=O)N[C@@H](Cc1ccccc1)C(=O)N[C@@H](CO)C(=O)N[C@H](C(=O)N[C@H](C(=O)N[C@@H](CCCNC(=N)N)C(=O)O)[C@@H](C)O)[C@@H](C)O)[C@@H](C)O)[C@@H](C)O	SH3 and multiple ankyrin repeat domains protein 1, PDZ domain (SHANK1, Homo sapiens, UniProt Q9Y566)	binding, fluorescence polarization	added: FITC-labelled peptide	4.3 ± 0.2 µM
